Measured values from different studies.
Each line is one published result; not all experiments were run side by side. ± marks the error that the study gave.
4'-phosphopantetheinyl transferase PptT: 4'-phosphopantetheinyl transferase PptT (Mycobacterium tuberculosis, UniProt O33336)
Sequence of UniProt O33336 (whole entry, looked up): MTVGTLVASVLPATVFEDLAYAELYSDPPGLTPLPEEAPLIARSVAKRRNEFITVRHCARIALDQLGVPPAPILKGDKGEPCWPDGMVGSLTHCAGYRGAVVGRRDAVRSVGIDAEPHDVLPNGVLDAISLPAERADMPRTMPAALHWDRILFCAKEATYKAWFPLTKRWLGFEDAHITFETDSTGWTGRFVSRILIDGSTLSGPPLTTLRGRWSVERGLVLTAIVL
SCRIB PDZ3 domain: Protein scribble homolog, PDZ3 domain (SCRIB, Homo sapiens, UniProt Q14160)
Sequence of UniProt Q14160 (whole entry, looked up): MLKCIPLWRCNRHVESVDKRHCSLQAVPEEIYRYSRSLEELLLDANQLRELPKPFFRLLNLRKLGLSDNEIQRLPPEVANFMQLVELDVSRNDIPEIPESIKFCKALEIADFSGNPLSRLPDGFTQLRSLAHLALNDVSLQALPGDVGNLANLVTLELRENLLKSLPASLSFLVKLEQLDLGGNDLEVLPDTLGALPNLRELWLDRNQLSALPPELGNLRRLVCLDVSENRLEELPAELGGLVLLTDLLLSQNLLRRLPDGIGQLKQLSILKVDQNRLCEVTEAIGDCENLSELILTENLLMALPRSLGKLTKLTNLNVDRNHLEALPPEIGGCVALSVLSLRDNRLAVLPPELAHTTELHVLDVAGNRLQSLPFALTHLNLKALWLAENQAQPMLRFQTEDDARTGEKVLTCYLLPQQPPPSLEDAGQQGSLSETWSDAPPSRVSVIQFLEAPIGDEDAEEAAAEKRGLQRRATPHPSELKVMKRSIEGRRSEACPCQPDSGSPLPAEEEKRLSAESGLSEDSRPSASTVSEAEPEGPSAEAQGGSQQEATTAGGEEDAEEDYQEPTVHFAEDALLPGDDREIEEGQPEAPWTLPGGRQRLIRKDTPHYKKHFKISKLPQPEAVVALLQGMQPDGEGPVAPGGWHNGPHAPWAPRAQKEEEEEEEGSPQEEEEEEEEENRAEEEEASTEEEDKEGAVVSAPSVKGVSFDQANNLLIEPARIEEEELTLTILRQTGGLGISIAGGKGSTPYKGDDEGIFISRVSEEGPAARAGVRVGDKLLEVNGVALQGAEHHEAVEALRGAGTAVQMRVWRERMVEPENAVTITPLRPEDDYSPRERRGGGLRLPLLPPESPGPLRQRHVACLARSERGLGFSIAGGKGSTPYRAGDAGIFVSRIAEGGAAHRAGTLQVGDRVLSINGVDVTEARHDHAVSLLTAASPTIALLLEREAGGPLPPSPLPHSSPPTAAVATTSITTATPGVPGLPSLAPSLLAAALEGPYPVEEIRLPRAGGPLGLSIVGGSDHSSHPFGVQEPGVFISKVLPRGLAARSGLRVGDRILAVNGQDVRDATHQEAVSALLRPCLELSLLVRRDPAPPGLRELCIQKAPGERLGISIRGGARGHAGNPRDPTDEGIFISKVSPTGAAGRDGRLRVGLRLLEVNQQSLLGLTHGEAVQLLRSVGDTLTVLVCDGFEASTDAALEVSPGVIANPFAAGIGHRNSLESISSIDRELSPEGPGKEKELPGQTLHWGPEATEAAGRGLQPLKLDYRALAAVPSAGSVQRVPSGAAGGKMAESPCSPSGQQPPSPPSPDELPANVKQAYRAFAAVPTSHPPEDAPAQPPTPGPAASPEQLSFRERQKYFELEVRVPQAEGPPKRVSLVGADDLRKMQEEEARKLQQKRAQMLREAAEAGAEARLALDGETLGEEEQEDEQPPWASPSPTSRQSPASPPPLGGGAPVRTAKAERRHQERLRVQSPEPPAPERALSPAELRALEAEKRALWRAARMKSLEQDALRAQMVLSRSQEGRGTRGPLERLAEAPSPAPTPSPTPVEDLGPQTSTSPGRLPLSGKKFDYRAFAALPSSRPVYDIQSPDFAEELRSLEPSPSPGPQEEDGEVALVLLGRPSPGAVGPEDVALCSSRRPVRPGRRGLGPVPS
Sequence of UniProt Q8NET8 (whole entry, unmodified, looked up): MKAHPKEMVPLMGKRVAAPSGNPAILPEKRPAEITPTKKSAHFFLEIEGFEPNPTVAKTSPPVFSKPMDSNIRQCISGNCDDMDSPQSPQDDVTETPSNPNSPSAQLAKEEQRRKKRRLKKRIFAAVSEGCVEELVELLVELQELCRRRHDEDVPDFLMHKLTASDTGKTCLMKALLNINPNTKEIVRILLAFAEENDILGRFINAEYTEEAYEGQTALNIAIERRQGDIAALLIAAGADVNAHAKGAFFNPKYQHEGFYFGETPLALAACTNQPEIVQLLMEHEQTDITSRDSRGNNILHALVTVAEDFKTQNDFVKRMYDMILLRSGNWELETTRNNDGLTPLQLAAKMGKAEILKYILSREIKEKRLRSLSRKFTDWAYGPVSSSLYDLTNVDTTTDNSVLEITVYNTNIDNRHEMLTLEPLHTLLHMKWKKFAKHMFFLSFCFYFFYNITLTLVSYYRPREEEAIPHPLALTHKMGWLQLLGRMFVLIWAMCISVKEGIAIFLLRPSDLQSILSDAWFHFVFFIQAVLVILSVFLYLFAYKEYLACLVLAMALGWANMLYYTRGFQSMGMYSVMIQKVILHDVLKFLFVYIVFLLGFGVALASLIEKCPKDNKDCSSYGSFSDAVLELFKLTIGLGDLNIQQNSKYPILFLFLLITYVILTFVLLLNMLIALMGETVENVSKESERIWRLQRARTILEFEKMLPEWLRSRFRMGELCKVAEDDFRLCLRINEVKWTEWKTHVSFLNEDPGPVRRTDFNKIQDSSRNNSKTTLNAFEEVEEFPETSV
Sequence of UniProt Q96DB2 (whole entry, looked up): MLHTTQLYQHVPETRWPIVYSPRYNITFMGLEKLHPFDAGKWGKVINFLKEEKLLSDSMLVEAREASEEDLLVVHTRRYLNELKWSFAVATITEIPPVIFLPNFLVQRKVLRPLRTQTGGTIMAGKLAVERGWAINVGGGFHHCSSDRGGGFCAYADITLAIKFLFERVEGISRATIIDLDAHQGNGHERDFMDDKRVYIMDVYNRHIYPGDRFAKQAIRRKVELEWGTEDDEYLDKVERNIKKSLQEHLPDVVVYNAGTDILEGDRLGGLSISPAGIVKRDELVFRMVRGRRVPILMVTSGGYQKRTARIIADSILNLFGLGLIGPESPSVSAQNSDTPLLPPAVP
Sequence of UniProt P08311 (whole entry, looked up): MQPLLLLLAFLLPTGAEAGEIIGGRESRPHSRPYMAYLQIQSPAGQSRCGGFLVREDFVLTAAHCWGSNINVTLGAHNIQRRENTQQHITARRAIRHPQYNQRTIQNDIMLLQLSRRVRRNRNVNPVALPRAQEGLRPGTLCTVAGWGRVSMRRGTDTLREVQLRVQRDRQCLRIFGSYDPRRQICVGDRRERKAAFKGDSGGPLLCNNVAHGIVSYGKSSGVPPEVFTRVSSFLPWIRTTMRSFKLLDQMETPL

Structure (SMILES) = O=C(O)CNCP(=O)(O)O; target = EPSP synthase (Zea mays, UniProt A0A1D6NVZ6, P168S/P188S/T164I); measurement = Ki; value = 859 ± 42 µM
Structure (SMILES) = CCCCCCCCNC(=N)NC(=O)Nc1c(CC)cccc1CC; target = 4'-phosphopantetheinyl transferase PptT; assay = inhibitor; measurement = IC50; value = > 100 µM
Structure (SMILES) = CC(C)C[C@H](NC(=O)[C@H](CC(N)=O)NC(=O)[C@H](CCC(=O)O)NC(=O)CNC(=O)[C@@H]1CCCN1C(=O)[C@H](CCC(N)=O)NC(=O)[C@H](Cc1ccc(O)cc1)NC(=O)[C@H](CCC(N)=O)NC(=O)[C@@H]1CCCN1C(=O)[C@@H](N)CCC(=O)O)C(=O)O; target = SCRIB PDZ3 domain; assay = binding, fluorescence polarization; test system = solution; setting = Scribble PDZ3 domain; measurement = Kd; value = 48.6 µM
Structure (SMILES) = CCNC(=N)NC(=O)Nc1ccc(Cl)c(C(F)(F)F)c1; target = 4'-phosphopantetheinyl transferase PptT; assay = inhibitor; measurement = IC50; value = > 100 µM
Structure (SMILES) = Cc1c(OS(=O)(=O)Oc2ccc(Oc3ccccc3)cc2)cccc1C(=O)NO; target = HDAC11 (Homo sapiens, UniProt Q96DB2); measurement = IC50; value = 0.269 µM
Structure (SMILES) = C[C@H]1CN(c2n[nH]c3nc(N[C@H]4CC[C@H](NS(=O)(=O)CCC(F)(F)F)CC4)ncc23)CCO1; target = ATP1A1 (Homo sapiens, UniProt P05023); assay = biochemical; measurement = IC50; value = ≥ 20 µM
Structure (SMILES) = COc1cc(Nc2ncc(F)c(Nc3ccc4c(n3)NC(=O)C(C)(C)O4)n2)cc(OC)c1OC; target = Cathepsin G (CTSG, Homo sapiens, UniProt P08311); measurement = IC50; value = > 10 µM
Structure (SMILES) = CC(C)C[C@H](NC(=O)[C@H](CO)NC(=O)[C@@H](NC(=O)[C@H](CCC(=O)O)NC(=O)[C@H](CCC(=O)O)NC(=O)[C@H](CS)NC(=O)[C@@H](NC(=O)[C@H](CCCNC(=N)N)NC(=O)[C@@H](NC(=O)[C@@H]1CCCN1)C(C)C)C(C)C)[C@@H](C)O)C(=O)O; target = SCRIB PDZ3 domain; assay = binding, fluorescence polarization; test system = solution; setting = Scribble PDZ3 domain; measurement = Kd; value = 3.4 µM
Structure (SMILES) = CCCc1cc(O)c2c(c1)OC(C)(C)[C@@H]1CCC(C)=C[C@@H]21; target = TRPV3 (Homo sapiens, UniProt Q8NET8, L563A); assay = calcium uptake, agonist; test system = HEK293S; setting = mutant L563A, site 1; measurement = EC50; value = 6.04 ± 0.19 µM
Structure (SMILES) = CC(C)[C@H](NC(=O)[C@H](CO)NC(=O)[C@@H](NC(=O)[C@@H](NC(=O)[C@@H](NC(=O)[C@H](CCCNC(=N)N)NC(=O)[C@@H](NC(=O)[C@H](CCCCN)NC(=O)[C@H](C)NC(=O)[C@@H](N)CO)C(C)C)[C@@H](C)O)C(C)C)[C@@H](C)O)C(=O)O; target = SCRIB PDZ3 domain; assay = binding, fluorescence polarization; test system = solution; setting = Scribble PDZ3 domain; measurement = Kd; value = 30 µM
Structure (SMILES) = CCNC(=N)NC(=O)Nc1ccc(Cl)cc1C(F)(F)F; target = 4'-phosphopantetheinyl transferase PptT; assay = inhibitor; measurement = IC50; value = 12.5 µM
Structure (SMILES) = CC[C@H](C)[C@H](NC(=O)[C@H](CCCNC(=N)N)NC(=O)[C@@H](NC(=O)[C@H](CO)NC(=O)[C@H](CC(C)C)NC(=O)[C@H](C)NC(=O)[C@@H](N)CO)C(C)C)C(=O)N[C@@H](CO)C(=O)N[C@@H](CC(N)=O)C(=O)N[C@H](C(=O)O)C(C)C; target = SCRIB PDZ3 domain; assay = binding, fluorescence polarization; test system = solution; setting = Scribble PDZ3 domain; measurement = Kd; value = 13.2 µM
Structure (SMILES) = CCCCNC(=N)NC(=O)Nc1c(CC)cccc1CC; target = 4'-phosphopantetheinyl transferase PptT; assay = inhibitor; measurement = IC50; value = 37.6 µM
Structure (SMILES) = CC[C@H](C)[C@H](NC(=O)[C@H](CO)NC(=O)[C@H](CO)NC(=O)[C@H](CCC(=O)O)NC(=O)[C@H](C)NC(=O)[C@H](CO)NC(=O)[C@H](C)NC(=O)[C@@H](NC(=O)[C@H](CC(=O)O)NC(=O)[C@@H](N)C(C)C)[C@@H](C)CC)C(=O)O; target = SCRIB PDZ3 domain; assay = binding, fluorescence polarization; test system = solution; setting = Scribble PDZ3 domain; measurement = Kd; value = 13.6 µM
Structure (SMILES) = CCNC(=N)NC(=O)Nc1c(F)cc(F)cc1F; target = 4'-phosphopantetheinyl transferase PptT; assay = inhibitor; measurement = IC50; value = > 100 µM

For quick reference, copied from above:
Structure (SMILES) = CC(C)[C@H](NC(=O)[C@H](CO)NC(=O)[C@@H](NC(=O)[C@@H](NC(=O)[C@@H](NC(=O)[C@H](CCCNC(=N)N)NC(=O)[C@@H](NC(=O)[C@H](CCCCN)NC(=O)[C@H](C)NC(=O)[C@@H](N)CO)C(C)C)[C@@H](C)O)C(C)C)[C@@H](C)O)C(=O)O; target = SCRIB PDZ3 domain; assay = binding, fluorescence polarization; test system = solution; setting = Scribble PDZ3 domain; measurement = Kd; value = 30 µM
Structure (SMILES) = C[C@H]1CN(c2n[nH]c3nc(N[C@H]4CC[C@H](NS(=O)(=O)CCC(F)(F)F)CC4)ncc23)CCO1; target = ATP1A1 (Homo sapiens, UniProt P05023); assay = biochemical; measurement = IC50; value = ≥ 20 µM
